Measurements collected from several papers.
Every numbered part comes from another study and shows a few of its results, in no order. Substitutions count along the parent as printed.

Series 1
Target: Centromere-binding protein 1, full length, His-tagged (CBF1, Saccharomyces cerevisiae, UniProt P17106, residues 1-351)
Chain of UniProt P17106 (whole entry, looked up): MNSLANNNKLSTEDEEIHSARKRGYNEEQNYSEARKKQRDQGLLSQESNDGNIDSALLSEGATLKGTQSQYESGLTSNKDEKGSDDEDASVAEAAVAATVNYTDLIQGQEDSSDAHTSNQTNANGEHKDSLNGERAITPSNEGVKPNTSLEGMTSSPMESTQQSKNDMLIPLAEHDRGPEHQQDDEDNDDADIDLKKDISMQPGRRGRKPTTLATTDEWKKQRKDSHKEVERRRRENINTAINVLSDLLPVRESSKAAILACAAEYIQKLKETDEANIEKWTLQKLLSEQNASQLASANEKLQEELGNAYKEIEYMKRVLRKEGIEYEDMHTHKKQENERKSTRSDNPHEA
Method: competition protein-binding microarray
Molecule type: double-stranded DNA, one strand shown
Matrix: in vitro
Tested at: 2 µM
Setting: whole 60-bp probe, lowest competitor level
Together with: Pho4 competitor, 0.05 µM
Direction: higher = stronger binding
Measurement: fluorescence intensity
CAACAAACAGTAGCTCGCGTGGCCGAATGGCAACGCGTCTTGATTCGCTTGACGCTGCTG: 88.6 a.u.
CTTTCCCGATCTTGCCTTGTGGGTGTAGCACATTTGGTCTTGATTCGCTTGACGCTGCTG: 76.1 a.u.
TCTAAATTGGAGCACAGCATGACAGTTGCCACCTCTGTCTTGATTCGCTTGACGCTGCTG: 65.8 a.u.
CTAACGAAGGTTTGTCACCAGACTTACAAGCCAAGTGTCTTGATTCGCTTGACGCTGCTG: 79.4 a.u.
AAATTACTAAGTTGCGCTGTGGGTGACGCCGTATGAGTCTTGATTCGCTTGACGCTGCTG: 65.4 a.u.
CTAACGAAGGTTTGGATAGTGGGTGACAAGCCAAGTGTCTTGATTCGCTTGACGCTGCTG: 79 a.u.
GAAACCTGAAACTGCCACGTGAAGACACCAGGGCTGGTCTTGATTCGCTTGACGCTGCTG: 505 a.u.
CGTCCTAGCGATTGACCCGTGGGTGCCATGAGGAAGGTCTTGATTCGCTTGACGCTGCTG: 93.8 a.u.
ACTGGTAAGCACCGTCACGCTAAAGTCCATTTGGTTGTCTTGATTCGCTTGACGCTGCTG: 78.8 a.u.
TAACCTTTAAGCCGTCACAAATAAATAGCCTTGTTGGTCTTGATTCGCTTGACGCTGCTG: 72 a.u.
AGCCAGGTTGCTTCACACGTGTTGGTGTACGTTAAGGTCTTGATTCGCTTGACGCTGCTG: 947 a.u.
AAATTACTAAGTTGTCACGCAACTTACCCCGTATGAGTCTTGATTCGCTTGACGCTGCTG: 130 a.u.
CTGACGGTAGCGCTCCAGGTGATGCTGGTGTTTCATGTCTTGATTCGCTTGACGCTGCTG: 61.7 a.u.
CCTCGGCTGTTCAGCAACGTGAGATGGTTGTTGTTAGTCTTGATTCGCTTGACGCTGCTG: 98.4 a.u.
AAAGCGGTAATTTGTCACCTCACTTCACATATCTATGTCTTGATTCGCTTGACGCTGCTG: 78.5 a.u.
GTCTTGTCTCATTGTCAAGTGGGTGTCCCCACTTCAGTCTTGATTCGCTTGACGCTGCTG: 90.7 a.u.
GAATTTTGCAAATCCAACGTGGCCGGTTGACCAGTAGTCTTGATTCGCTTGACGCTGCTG: 67.2 a.u.

Series 2
Target: OGT, full length, His-tagged (human)
Method: phage display, sequencing
Matrix: in vitro
Tested at: 1 µg OGT
Setting: single substitutions, 15-mer displayed peptide, unchanged parent 19.6
Relative to: input library
Direction: higher = stronger binding
Measurement: fold enrichment
Starting sequence: peptide; TAPFYPPAYQIQVFK; partner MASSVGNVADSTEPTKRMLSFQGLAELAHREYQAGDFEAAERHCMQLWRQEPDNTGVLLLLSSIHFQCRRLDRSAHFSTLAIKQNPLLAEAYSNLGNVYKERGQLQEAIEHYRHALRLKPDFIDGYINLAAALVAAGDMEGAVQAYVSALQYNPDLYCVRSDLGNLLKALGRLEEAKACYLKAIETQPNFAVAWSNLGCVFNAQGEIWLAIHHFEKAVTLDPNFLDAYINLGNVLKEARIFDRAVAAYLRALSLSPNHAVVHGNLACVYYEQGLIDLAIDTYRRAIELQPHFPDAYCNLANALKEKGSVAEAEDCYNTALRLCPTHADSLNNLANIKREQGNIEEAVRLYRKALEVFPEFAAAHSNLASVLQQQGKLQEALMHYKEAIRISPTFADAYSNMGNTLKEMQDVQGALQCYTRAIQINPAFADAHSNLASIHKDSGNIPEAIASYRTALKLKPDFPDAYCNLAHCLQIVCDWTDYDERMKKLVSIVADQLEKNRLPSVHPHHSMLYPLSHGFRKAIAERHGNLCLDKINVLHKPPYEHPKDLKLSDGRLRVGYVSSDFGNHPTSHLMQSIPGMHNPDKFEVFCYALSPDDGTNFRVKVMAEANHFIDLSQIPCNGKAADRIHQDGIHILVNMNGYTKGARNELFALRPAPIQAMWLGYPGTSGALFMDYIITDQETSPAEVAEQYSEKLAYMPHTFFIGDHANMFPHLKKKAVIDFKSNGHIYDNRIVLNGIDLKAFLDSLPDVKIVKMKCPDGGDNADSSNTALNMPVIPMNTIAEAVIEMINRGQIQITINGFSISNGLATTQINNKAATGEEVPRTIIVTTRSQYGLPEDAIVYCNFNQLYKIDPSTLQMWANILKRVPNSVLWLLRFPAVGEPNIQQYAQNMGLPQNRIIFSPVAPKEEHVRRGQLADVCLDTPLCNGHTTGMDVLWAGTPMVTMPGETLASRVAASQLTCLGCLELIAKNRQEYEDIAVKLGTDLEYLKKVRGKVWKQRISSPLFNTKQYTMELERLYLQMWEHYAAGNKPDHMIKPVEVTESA
TAPFYPPLYQIQVFK [A8L]: 17.3 fold
TAPFYPPAMQIQVFK [Y9M]: 1.57 fold
TAPFYPPAYQVQVFK [I11V]: 0.881 fold
TAPFHPPAYQIQVFK [Y5H]: 1.04 fold
TAPFYPPAYQIQVSK [F14S]: 18.4 fold
TASFYPPAYQIQVFK [P3S]: 12.7 fold
TAPTYPPAYQIQVFK [F4T]: 11.2 fold
TAPFYPPASQIQVFK [Y9S]: 0.442 fold
TAPFSPPAYQIQVFK [Y5S]: 1.1 fold
TAPFYKPAYQIQVFK [P6K]: 1.15 fold
TAPFYPPAYQIQVFQ [K15Q]: 8.69 fold
TAPFYPPAYQIQVNK [F14N]: 27.8 fold
TAPFYPPAYQIQSFK [V13S]: 4.9 fold
TAPFYPPAYQIQVLK [F14L]: 15.1 fold
TAPFYPPAYQMQVFK [I11M]: 1.1 fold
TAPFYPPANQIQVFK [Y9N]: 0.627 fold
TAPFYPPAYQHQVFK [I11H]: 0.918 fold
TAPFYSPAYQIQVFK [P6S]: 1.3 fold
TWPFYPPAYQIQVFK [A2W]: 10.8 fold
TAVFYPPAYQIQVFK [P3V]: 20 fold

Series 3
Target: CCNE1, cyclin fold, Cln2 fusion (human)
Method: yeast growth competition, sequencing
Matrix: yeast
Setting: weak parent motif
Relative to: not given
Direction: higher = stronger binding
Measurement: normalised enrichment score
Starting sequence: ORC1 docking peptide (human); PRARKRLELGNLG
PRARARLELGNLG [K5A]: -0.104
PRARKRLELGLLG [N11L]: 0.856
PRARKRLELWNLG [G10W]: 1.38
PRARKRLELGNVG [L12V]: 0.307
PRARKRLILGNLG [E8I]: 0.244
PRANKRLELGNLG [R4N]: 0.63
PRARKRLELGNLH [G13H]: 0.885
PRARKRLELGNNG [L12N]: 0.444
PRTRKRLELGNLG [A3T]: 0.671
PRARKRLELGKLG [N11K]: -0.0933
PRARKRLEYGNLG [L9Y]: 0.683
PRARKRCELGNLG [L7C]: 0.0671
PRARKRLELGNLA [G13A]: -0.141
PRARKRLELGNLF [G13F]: 0.361
PRARKRLFLGNLG [E8F]: 0.816
PRARKRLPLGNLG [E8P]: 0.546
PRARKRLELMNLG [G10M]: 0.327
PRMRKRLELGNLG [A3M]: 2.45
PRARKRLELGHLG [N11H]: 0.241
PRARKRLELGNSG [L12S]: 0.255
PPARKRLELGNLG [R2P]: -0.435
PRARKRLELGNDG [L12D]: -0.261
PRARKRLELGFLG [N11F]: 0.703
PRARKRLELGNLI [G13I]: -0.492
PRQRKRLELGNLG [A3Q]: 0.797

Series 4
Target: CEP164, C-terminal peptide (human)
Method: DHFR complementation, deep sequencing
Matrix: yeast
Setting: single substitutions, model-inferred values
Relative to: wild type
Direction: higher = weaker binding
Measurement: binding free energy change
Starting sequence: PDZK1, PDZ domain 2 (human); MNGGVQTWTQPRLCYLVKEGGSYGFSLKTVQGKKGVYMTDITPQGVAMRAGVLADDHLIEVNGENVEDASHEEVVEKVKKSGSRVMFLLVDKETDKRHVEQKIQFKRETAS; partner HNRVKVYRF
V75L: 1.31 kcal/mol
R49Q: 0.15 kcal/mol
Q31M: -0.122 kcal/mol
V85Y: 1.88 kcal/mol
T94K: 0.0203 kcal/mol
L16V: 0.996 kcal/mol
C14R: 0.655 kcal/mol
I41A: 1.28 kcal/mol
Q104C: -0.264 kcal/mol
W8D: -0.0203 kcal/mol
H57R: -0.618 kcal/mol
Y23T: 1.87 kcal/mol
P43H: 0.224 kcal/mol
T94C: 0.00167 kcal/mol
L58R: 0.632 kcal/mol
D68W: 0.0228 kcal/mol

Series 5
Target: ABI1, truncated, D143A, DHFR fusion (Arabidopsis thaliana)
Method: DHFR PCA, deep sequencing
Matrix: yeast
Setting: methotrexate growth selection, single substitutions
Together with: (+)-ABA 1.4 µM
Relative to: wild-type fitted maximum
Direction: higher = stronger binding
Measurement: relative binding score
Starting sequence: PYL1, truncated, DHFR fusion (Arabidopsis thaliana); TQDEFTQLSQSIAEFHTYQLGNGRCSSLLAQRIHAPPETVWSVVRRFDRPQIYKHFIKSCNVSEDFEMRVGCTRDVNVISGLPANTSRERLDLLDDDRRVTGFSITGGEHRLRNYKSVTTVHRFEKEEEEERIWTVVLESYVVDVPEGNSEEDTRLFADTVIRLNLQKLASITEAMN; partner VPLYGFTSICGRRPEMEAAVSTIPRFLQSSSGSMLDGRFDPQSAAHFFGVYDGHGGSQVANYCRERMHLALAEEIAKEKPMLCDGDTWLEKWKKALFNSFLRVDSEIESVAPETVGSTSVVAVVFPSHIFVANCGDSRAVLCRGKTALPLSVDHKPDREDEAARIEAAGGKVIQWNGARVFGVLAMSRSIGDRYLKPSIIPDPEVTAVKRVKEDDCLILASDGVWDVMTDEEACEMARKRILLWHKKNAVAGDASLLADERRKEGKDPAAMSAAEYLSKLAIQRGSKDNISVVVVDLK
D97P: 5.3%
R24D: 6.78%
L20E: 66.7%
L82Q: 19.2%
Q7F: 62%
L20S: 54.7%
L8P: 6.64%
G148V: -7.33%
N165F: -1.17%
P146N: -16.7%
N61V: 71.4%
R88I: 69.4%
I105M: 7.42%
K54R: 7.98%
R99W: 82.6%

Series 6
Target: TAR DNA-binding protein 43, full length, His tag (TARDBP, Homo sapiens, UniProt Q13148, residues 1-414)
Method: RNA Bind-n-Seq
Molecule type: RNA
Matrix: in vitro
Tested at: 20 nM
Setting: 6-mer, flanks averaged, single round
Together with: 150 mM LiCl
Relative to: input library
Direction: higher = stronger binding
Measurement: 6-mer enrichment (R)
GAAGAU: 0.891
CGUAUA: 0.902
UGUAGU: 1.23
GAAAAC: 0.774
GGGCCG: 1.15
AUUUUA: 1.18
UCUAGA: 0.817
CGUGGU: 1.13
UAUCGG: 0.898
UUCAGG: 0.91
CGGGGA: 1.08
AAUAGG: 0.971
CGUAGU: 0.936

Series 7
Target: Sal-like protein 4, full length isoform B (SALL4, Homo sapiens, UniProt Q9UJQ4-2, residues 1-616)
Method: universal PBM
Molecule type: double-stranded DNA, one strand shown
Matrix: in vitro
Tested at: not given
Setting: 8-mer, flanks averaged, mean of replicates
Direction: higher = stronger binding
Measurement: E-score
Residues (chain): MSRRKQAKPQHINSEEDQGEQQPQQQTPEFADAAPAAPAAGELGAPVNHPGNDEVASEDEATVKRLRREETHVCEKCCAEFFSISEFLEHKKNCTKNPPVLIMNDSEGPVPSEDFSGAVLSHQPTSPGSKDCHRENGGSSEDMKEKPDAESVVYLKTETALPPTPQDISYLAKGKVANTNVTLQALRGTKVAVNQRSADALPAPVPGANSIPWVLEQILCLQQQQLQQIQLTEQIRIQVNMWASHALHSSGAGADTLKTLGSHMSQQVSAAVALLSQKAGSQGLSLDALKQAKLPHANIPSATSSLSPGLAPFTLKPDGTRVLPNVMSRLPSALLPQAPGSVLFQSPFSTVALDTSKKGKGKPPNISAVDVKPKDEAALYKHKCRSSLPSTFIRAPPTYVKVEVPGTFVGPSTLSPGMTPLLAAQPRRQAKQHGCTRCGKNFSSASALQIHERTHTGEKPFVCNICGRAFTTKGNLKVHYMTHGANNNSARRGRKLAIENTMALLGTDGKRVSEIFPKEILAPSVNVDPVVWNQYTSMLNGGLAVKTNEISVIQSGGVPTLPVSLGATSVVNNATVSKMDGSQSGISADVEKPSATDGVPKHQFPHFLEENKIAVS
GACGTATC: 0.0115
AGCGTATA: 0.193
AAATGATA: 0.37
CCTGCTAG: -0.214
ACGTCGCG: -0.152
TAAGATTA: 0.214
TCCGGGCA: -0.307
ACATCCCT: -0.0526
ACGCTTTA: 0.0355
AATTGTCA: 0.24
GGCGTAAA: 0.0533
ACTGGCCC: -0.169
GGCCGAAA: -0.0836
TCAGAGGA: -0.0396
GGGGAAAC: -0.211
AGCAGAAT: 0.142

Single results of other studies
PhoQ, residues 284 288 289 292 302 303 TTSMTC — fold induction (PhoP, residues 12 14 15 18 19 GHCSL (Escherichia coli, UniProt P23836); Sort-seq, refers to: YFP reporter; E. coli; PhoQ-PhoP variant library, together with: 10 µM Mg2+; relative to: high Mg2+ state, higher = stronger signaling): 12.1
